# Measured values collected from several papers.
# Protocols differ between the studies behind these lines. Numbers after ± are the reported error.
SMILES,test system,conditions,tissue uptake
CN(C)c1ccc(-c2nc3ccc(OCCCCCN4CCN5CCN(CC4)CC(=O)[O][Al]([18F])[O]C(=O)C5)cc3s2)cc1,"ICR mouse, blood","intravenous, 10 min",3.58 ± 1.31 %ID/g
CC(C)[C@H](NC(=O)[C@@H]1CCCN1C(=O)[C@H](CCCNC(=N)N)NC(=O)[C@H](CS)NC(=O)[C@H](Cc1c[nH]c2ccccc12)NC(=O)[C@H](CCCNC(=N)N)NC(=O)[C@@H](Cc1ccccc1)NC(=O)[C@H](Cc1c[nH]cn1)NC(=O)[C@H](CCC(=O)O)NC(=O)[C@H](CS)NC(=O)[C@H](CS)NC(=O)CNC(=O)[C@@H]1CC(=O)N[C@@H](CCCNC(=N)N)C(=O)NCC(=O)N[C@@H](CC(=O)O)C(=O)N[C@H](Cc2ccc(O)cc2)C(=O)N1)C(N)=O [technetium-99m labelled],"C57 mouse, female, B16/F1 melanoma, blood","intravenous, 0.037 MBq, 4 h",0.71 ± 0.72 %ID/g
OCc1cn(Cc2ccc(-c3noc(-c4ccc(OCC[18F])c(C(F)(F)F)c4)n3)cc2)nn1,"Lewis rat, female, pancreas","intravenous, 1 h",1.52 ± 0.25 %ID/g
CC(C)[C@H](NC(=O)[C@@H]1CCCN1C(=O)[C@H](CCCNC(=N)N)NC(=O)[C@H](CS)NC(=O)[C@H](Cc1c[nH]c2ccccc12)NC(=O)[C@H](CCCNC(=N)N)NC(=O)[C@@H](Cc1ccccc1)NC(=O)[C@H](Cc1c[nH]cn1)NC(=O)[C@H](CCC(=O)O)NC(=O)[C@H](CS)NC(=O)[C@H](CS)NC(=O)[C@@H]1CC(=O)N[C@@H](CCCNC(=N)N)C(=O)NCC(=O)N[C@@H](CC(=O)O)C(=O)N[C@H](Cc2ccc(O)cc2)C(=O)N1)C(N)=O [technetium-99m labelled],"C57 mouse, female, B16/F1 melanoma, brain","intravenous, 0.037 MBq, 2 h",0.05 ± 0.01 %ID/g
CCCC[C@H](NC(=O)CNC(=O)CNC(=O)CN1CCN(CC(=O)O)CCN(CC(=O)O)CC1)C(=O)N[C@H]1CC(=O)NCCCC[C@@H](C(N)=O)NC(=O)[C@H](Cc2c[nH]c3ccccc23)NC(=O)[C@H](CCCNC(=N)N)NC(=O)[C@@H](Cc2ccccc2)NC(=O)[C@H](Cc2c[nH]cn2)NC1=O [copper-64 labelled],"C57 mouse female B16/F1 melanoma, intestines","intravenous, 0.037 MBq, 24 h",0.5 ± 0.2 %ID
O=C([O-])c1cccc(CN(CCN(Cc2cn(Cc3ccccc3)nn2)Cc2cccc(C(=O)[O-])n2)Cc2cn(Cc3ccccc3)nn2)n1.[64Cu+2],"healthy athymic nude mice, small intestine","intravenous, 24 h",3.05 %ID/g
O=C([O-])CN1CCN(CC(=O)[O-])CCN(CC(=O)NCCc2ccc3c(c2)C2C=CCC2C(c2cc4c(cc2Br)OCO4)N3)CCN(CC(=O)[O-])CC1.[111In+3] (stereo not drawn),"mouse, Hec50 endometrial tumour, uterus",4 h post injection,0.66 ± 0.03 %ID/g
CCCC[C@H](NC(=O)CNC(=O)CNC(=O)CN1CCN(CC(=O)O)CCN(CC(=O)O)CCN(CC(=O)O)CC1)C(=O)N[C@H]1CC(=O)NCCCC[C@@H](C(N)=O)NC(=O)[C@H](Cc2c[nH]c3ccccc23)NC(=O)[C@H](CCCNC(=N)N)NC(=O)[C@@H](Cc2ccccc2)NC(=O)[C@H](Cc2c[nH]cn2)NC1=O [copper-64 labelled],"female C57 mouse, B16/F1 melanoma, stomach","intravenous, 0.037 MBq, 2 h",4.78 ± 0.96 %ID/g
O=C(O)C1CN(Cc2ccc(-c3noc(-c4ccc(OCC[18F])c(C(F)(F)F)c4)n3)cc2)C1,"male Sprague-Dawley rat, muscle","intravenous, 60 min",0.156 ± 0.01 %ID/g

# Repeated from above:
SMILES,test system,conditions,tissue uptake
CN(C)c1ccc(-c2nc3ccc(OCCCCCN4CCN5CCN(CC4)CC(=O)[O][Al]([18F])[O]C(=O)C5)cc3s2)cc1,"ICR mouse, blood","intravenous, 10 min",3.58 ± 1.31 %ID/g
